{"data": "Assay results collected from several papers", "note": "Each line is one published result; not all experiments were run side by side. ± marks the error that the study gave."}
{"SMILES": "OC1(C(F)(F)F)CCN(c2nc(Nc3ccnc(C(F)(F)F)c3)nc(-c3cccc(C(F)(F)F)n3)n2)C1 (centres unmarked)", "system": "Sprague-Dawley rat, both sexes, plasma", "conditions": "oral gavage, 5 mg/kg, day 14", "Cmax": "859 ± 138 ng/mL"}
{"SMILES": "CC1(C)C(NC(=O)C(=NOC2(C(=O)O)CCC2)c2csc(N)n2)C(=O)N1OS(=O)(=O)O (centres unmarked)", "system": "Sprague-Dawley rat, plasma", "conditions": "intravenous, 10 mg/kg", "Cmax": "70500 ± 24300 ng/mL"}
{"SMILES": "COCCN(C)CC(=O)NC(Cc1ccc(-c2ccccc2)cc1)B(O)O (centres unmarked)", "system": "male Sprague-Dawley rats, plasma", "conditions": "intravenous, 1 mg/kg, citrate ester", "Cmax": "4120 nM"}
{"SMILES": "Cc1c(-c2ccc(N3CCc4cccc(C(=O)Nc5nc6ccccc6s5)c4C3)nc2C(=O)O)cnn1CC12CC3CC(CC(C3)C1)C2", "system": "anesthetized male Sprague-Dawley rats, plasma", "conditions": "intravenous infusion, 30 mg/kg, 30 min infusion", "Cmax": "194000 ng/mL"}
{"SMILES": "CC[C@H](C)[C@H](NC(=O)[C@H](Cc1ccc(O)cc1)NC(=O)[C@@H](NC(=O)[C@H](CCCNC(=N)N)NC(=O)[C@@H](N)CC(=O)O)C(C)C)C(=O)N[C@@H](Cc1c[nH]cn1)C(=O)N1CCC[C@H]1C(=O)O", "assay": "LC-MS/MS", "system": "Sprague-Dawley rats, plasma", "conditions": "subcutaneous, 10 mg/kg/day, day 0", "Cmax": "26 ng/mL"}
{"SMILES": "C/C(N)=N/C(=N\\S(=O)(=O)c1ccc(C(F)(F)F)cc1)N1C[C@H](c2ccccc2)C(c2ccc(Cl)cc2)=N1", "system": "Sprague-Dawley rat, male, plasma", "conditions": "oral, 30 mg/kg", "Cmax": "3120 ng/mL"}
{"SMILES": "C=C(NC(=O)c1csc(-c2nc3c(cc2O)-c2nc(cs2)C(=O)NC(C(C)O)C(=O)NC(=C(C)OC)c2nc(cs2)C(=O)NC2c4nc(cs4)C(=O)NC(COC(=O)c4c5c6c(cccc6n4O)COC(=O)C(OC4CC(C)(O)C(N(C)C)C(C)O4)C2OC5)c2nc-3cs2)n1)C(N)=O (centres unmarked)", "system": "Sprague-Dawley rat, both sexes, plasma", "conditions": "intravenous infusion, 6 mg/kg single dose", "Cmax": "4390 ng/mL"}
{"SMILES": "O=C(O)/C=C\\c1cc2ccoc2cc1O[C@@H]1O[C@H](CO)[C@@H](O)[C@H](O)[C@H]1O", "system": "rat, plasma", "conditions": "oral, 217 mg/kg Pc extract, dosed as Pc extract", "Cmax": "488 ± 224 ng/mL"}
{"SMILES": "O=C(Nc1ccc(OC(F)(F)F)cc1)NC1CCN(C(=O)C2CC2)CC1", "system": "Sprague-Dawley rat, male, whole blood", "conditions": "oral, 0.1 mg/kg", "Cmax": "326 nM"}
{"SMILES": "COc1ccc([C@@H]2CC(=O)c3c(O)cc(O[C@@H]4O[C@H](CO)[C@@H](O)[C@H](O)[C@H]4O[C@@H]4O[C@@H](C)[C@H](O)[C@@H](O)[C@H]4O)cc3O2)cc1O", "system": "Sprague-Dawley rat, male, obese, plasma", "conditions": "intravenous, 4 mg/kg", "Cmax": "5.01 ± 0.542 ng/mL"}
{"SMILES": "CCCC[C@H](OC(C)=O)c1ccccc1C(=O)O", "system": "Sprague-Dawley rats, both sexes, whole blood", "conditions": "intravenous, 5 mg/kg single dose", "Cmax": "16600 ± 2380 ng/mL"}
